Measurements pooled from the literature.
Protocols differ between the studies behind these lines. Values joined by “and” are separate records of one study, mostly repeats; a detail may differ. ± gives the spread as reported.

| SMILES | assay | test system | conditions | scale | measurement | result |
| --- | --- | --- | --- | --- | --- | --- |
| N#C[C@@H]1CC(F)(F)CN1C(=O)CNC(=O)c1ccnc2ccc(OCCCN3CCN(C(=O)CCc4ccc(O)c(CN5CCN6CC(=O)[O][Al-]([18F])([O]C(=O)C5)[O]c5ccc(CCC(=O)N7CCN(CCCOc8ccc9nccc(C(=O)NCC(=O)N%10CC(F)(F)C[C@H]%10C#N)c9c8)CC7)cc5C6)c4)CC3)cc12 (some centres unmarked) | radio-TLC | CD-1 mice, plasma | intravenous, 10 min post-injection |  | radiochemical purity | 95.5 ± 2.4% |
| O=C(NS(=O)(=O)c1cccs1)c1cc2ccccc2n1Cc1ccc(Br)c2ccccc12 |  | KM mouse, chronic hyperuricaemia model | dose not given, day 22 |  | body weight | 33 g and 39.2 g and 37.6 g and 36.2 g and 34.9 g and 36.6 g |
| COc1cccc(OC)c1-c1cc(C(=O)NC2(C(=O)O)C3CC4CC(C3)CC2C4)nn1-c1ccc(C(=O)N(C)CCOCCN(C)C(=O)[C@H](CCCCNC(=O)[C@H](CC(C)C)NC(=O)C2OC2C(=O)O)NC(=O)CN2CCN(CC(=O)[O-])CCN(CC(=O)[O-])CCN(CC(=O)[O-])CC2)cc1C(C)C.[177Lu+3] (mixture of isomers) |  | mouse, HT-29 xenograft | 168 h post injection, biodistribution | reference: tumour over muscle uptake | tumour-to-muscle ratio | 1.91 |
| O=C1NC2(CC2)COc2ncc(F)cc2[C@H]2COCCN2c2ccn3ncc1c3n2 | bone marrow micronucleus test | NIH mice, male, bone marrow | oral, 20 mg/kg/day, 24 h |  | micronucleus rate | 0.8 ± 0.41 ‰ |
| O=C([O-])CN1CCN(CC(=O)[O-])CCN(CC(=O)[O-])CC1.[44Sc+3] |  | mouse, bone | intravenous, 1 h |  | tracer uptake | 0.26 %ID/g |
| CC(C)(O)c1ccc(N2Cc3c(ccnc3-c3ccc(F)cc3OCC(F)(F)F)C2=O)cc1 |  | male C57BL/6 mouse, plasma | oral, 30 mg/kg, 6 h |  | concentration | 6120 ng/mL |
| CC1(C)C(=CC=C2CCCC(C=CC3=[N+](CCC[N+](C)(C)C)c4ccc(S(=O)(=O)O)cc4C3(C)C)=C2SCCOCCOCCC(=O)O)N(CCC[N+](C)(C)C)c2ccc(S(=O)(=O)O)cc21 |  | PBS with FBS |  |  | quenching onset concentration | 5 µM |
| O=C1C2CC3CC1CC(C(=O)N1CCN(c4ccc([N+](=O)[O-])c5ncccc45)CC1)(C3)C2 |  | ICR mice male, plasma | oral, 5 mg/kg |  | MRT | 46.3 min |
| COc1ccc2c(c1)C(C)(C)C(/C=C/C1=C(Oc3ccc(C(=O)NCCCCOc4cc(CN(Cc5ccccn5)Cc5ccccn5)cc(CN(Cc5ccccn5)Cc5ccccn5)c4)cc3)C(=C/C=C3/N(CCCCS(=O)(=O)[O-])c4ccc(OC)cc4C3(C)C)CCC1)=[N+]2CCCCS(=O)(=O)[O-].O=[N+]([O-])[O-].O=[N+]([O-])[O-].[99Tc+].[C-]#[O+].[C-]#[O+].[C-]#[O+].[Zn+2] |  | mouse, muscle | 12 h |  | tracer uptake | 0.33 %ID/g |
| CN(Cc1ccccc1)C(=O)CN1CCN(CC(=O)N(C)Cc2ccccc2)CCN(Cc2cccc(C(=O)[O-])n2)CC1.[44Sc+3] |  | mouse, bone | intravenous, 1 h |  | tracer uptake | 0.68 %ID/g |
| CN([O-])C(=O)CN1CCNCCN(CC(=O)N(C)[O-])CC1.[89Zr+4] | radio-TLC | human serum | 2 days, run 2 |  | intact complex | 100% |
| Cc1cc(-c2ccc(C(=O)[C@@H]3CCCC[C@H]3C(=O)Nc3cnn4c3C(=O)NCC4)cc2)[nH]n1 |  | human, faeces | oral, 200 mg, 0-144 h | reference: dose | cumulative recovery of radioactivity | 72.5% |
| COc1cccc(OC)c1-c1cc(C(=O)NC2(C(=O)O)C3CC4CC(C3)CC2C4)nn1-c1ccc(C(=O)NCCNC(=O)[C@H](CCCCNC(=O)[C@H](CC(C)C)NC(=O)C2OC2C(=O)O)NC(=O)CN2CCN(CC(=O)[O-])CCN(CC(=O)[O-])CCN(CC(=O)[O-])CC2)cc1C(C)C.[177Lu+3] (mixture of isomers) |  | mouse, HT-29 xenograft, kidney | 4 h post injection |  | tissue uptake | 8.6 %ID/g |
| CC[C@H](C)[C@@H]1NC(=O)[C@H](Cc2ccc(O)cc2)NC(=O)CCCSC[C@@H](C(=O)N(CC(=O)N[C@@H](CC(C)C)C(=O)NCC(N)=O)Cc2ccc(F)cc2)NC(=O)[C@H](CC(N)=O)NC(=O)[C@H](CCC(N)=O)NC1=O |  | human | intranasal, 15 µg single dose |  | severe adverse events | 0% |
| CN(Cc1ccccc1)C(=O)CN1CCN(CC(=O)[O-])CCN(CC(=O)[O-])CC1.[44Sc+3] |  | mouse, lung | intravenous, 1 h |  | tracer uptake | 1.69 %ID/g |
| O=S1(=O)CC2CCCCC2CS1 (centres unmarked) | phase solubility, NMR | water | 25 °C, with: hydroxypropyl-β-cyclodextrin 141 mM |  | solubility | 15.7 mM |
| N#C[C@@H]1CCCN1C(=O)CNC(=O)c1ccnc2ccc(OCCCN3CCN(C(=O)CCc4ccc(O)c(CN5CCN6CC(=O)[O][Al-]([18F])([O]C(=O)C5)[O]c5ccc(CCC(=O)N7CCN(CCCOc8ccc9nccc(C(=O)NCC(=O)N%10CCC[C@H]%10C#N)c9c8)CC7)cc5C6)c4)CC3)cc12 (some centres unmarked) |  | BALB/c nude mice, U-87 MG tumour | 120 min post-injection | reference: tumour over blood | tumour-to-organ ratio | 11.3 ± 0.48 |
| O=C(Nc1cnccc1-c1ccc([18F])nc1)c1ccnc(NC(=O)C2CC2)c1 | ex vivo gamma counting | FVB/NJ mice, both sexes, thalamus | intravenous, 120 min, mean, P-gp inhibitor pretreatment, with: tariquidar 15 mg/kg iv |  | SUV | 0.076 |
| [2H]C([2H])(N)C([2H])([2H])NC(=O)c1cc(C2CC2)nc2c1cnn2C(C)C |  | female BALB/c mouse, plasma | intraperitoneal, 50 mg/kg, 30 min |  | concentration | 2610 ng/mL |
| COc1ccccc1/C=C/CNCC(O)COc1ccc(Nc2ccccc2)cc1 (racemic) |  | mouse, plasma | oral, 10 mg/kg |  | MRT(0-t) | 41.4 min |
| O=C(c1ccc(C23CC(S(F)(F)(F)(F)F)(CO2)C3)cc1)N1CCN(c2ncccn2)CC1 | metabolic stability | rat, liver microsomes |  |  | microsomal CLint | 805 µL/min/mg |

| SMILES | assay | test system | conditions | scale | measurement | result |
| --- | --- | --- | --- | --- | --- | --- |
| Cc1ncsc1-c1ccc(CNC(=O)[C@@H]2C[C@@H](O)CN2C(=O)[C@@H](NC(=O)COCC(C)(COCCOCCOCCNC(=O)C[C@@H]2N=C(c3ccc(Cl)cc3)c3c(sc(C)c3C)-n3c(C)nnc32)COCCOCCOCCNC(=O)C[C@@H]2N=C(c3ccc(Cl)cc3)c3c(sc(C)c3C)-n3c(C)nnc32)C(C)(C)C)cc1 |  | male C57BL/6 mouse, plasma | intravenous, 5 mg/kg, 8 h, single dose |  | concentration | 414 ng/mL |
| COc1cccc(OC)c1-c1cc(C(=O)NC2(C(=O)O)C3CC4CC(C3)CC2C4)nn1-c1ccc(C(=O)N(C)CCCN(C)CCCN(C)C(=O)[C@H](CCCCNC(=O)[C@H](CC(C)C)NC(=O)C2OC2C(=O)O)NC(=O)CN2CCN(CC(=O)[O-])CCN(CC(=O)[O-])CCN(CC(=O)[O-])CC2)cc1C(C)C.[177Lu+3] (mixture of isomers) |  | mouse HT-29 xenograft, large intestine | 24 h post injection, biodistribution |  | tissue uptake | 0.5 %ID/g |
| O=C(Nc1cnccc1-c1ccc([18F])cc1)c1ccnc(NC(=O)C2CC2)c1 |  | FVB/NJ mice (both sexes), bone | intravenous, dose not given, 120 min |  | SUV | 1.11 |
| Cc1cc(C)n(CCN(CCN)CCCCCCNC(=O)[C@@H](N)Cc2c[nH]cn2)n1.[99Tc+].[C-]#[O+].[C-]#[O+].[C-]#[O+] |  | BALB/c nude mice, MCF7 xenograft, bone | intravenous, 15 min |  | tissue uptake | 0.57 ± 0.08 %IA/g |
| CC(C)c1cnc(-c2cc(Cl)ccc2F)cc1Nc1ccncc1C(=O)NC(CO)CO |  | female C57BL/6 mice, plasma | oral, 10 mg/kg twice daily, day 1, MC-38 tumour-bearing |  | unbound Cmax | 14.1 nM |
| N=C(N)NCCC[C@@H]1NC(=O)[C@H](CO)NC(=O)[C@@H](NC(=O)[C@H](CO)NC(=O)[C@H](CO)NC(=O)[C@H](Cc2c[nH]c3ccccc23)NC(=O)CNC(=O)[C@H](CO)NC(=O)[C@@H](N)Cc2c[nH]c3ccccc23)CSSC[C@@H](C(=O)NCC(=O)O)NC(=O)[C@H](CO)NC1=O |  | patients, plasma | intravenous, 10 mg/kg, thrice weekly, mean |  | AUC(0-80 min) | 951 ng·h/mL |
| CN(Cc1ccccc1)C(=O)CN1CCN(CC(=O)[O-])CCN(CC(=O)N(C)Cc2ccccc2)CC1.[18F-].[Sc+3] |  | mouse, spleen | intravenous, 1 h |  | tracer uptake | 0.15 %ID/g |
| Cc1nn(-c2nc3c(F)cc(F)cc3s2)c(O)c1C(c1ccc(C(F)(F)F)cc1)c1c(C)nn(-c2nc3c(F)cc(F)cc3s2)c1O |  | ICR mouse, plasma | oral, 50 mg/kg |  | elimination rate constant | 0.116 h⁻¹ and 0.248 h⁻¹ and 0.2 h⁻¹ |
| CN(Cc1ccccc1)C(=O)CN1CCN(CC(=O)[O-])CCN(Cc2cccc(C(=O)[O-])n2)CC1.[18F-].[Sc+3] |  | BALB/c mouse, urine | intravenous, 1 h |  | uptake | 220 ± 56.4 %ID/g |
| CCC(CC)CNC(=N)NC(=N)NCCCCCCNC(=N)NC(=N)NCC(CC)CC | metabolic stability | rat, liver microsomes | 2 µM |  | scaled CLint | 67.8 mL/min/kg |
| COC1C=COC2(C)Oc3c(C)c(O)c4c(c3C2=O)C2=NC3(CCN(CC(C)C)CC3)NC2=C(NC(=O)C(C)=CC=CC(C)C(O)C(C)C(O)C(C)C(OC(=O)c2cncnc2)C1C)C4=O (centres unmarked) |  | CD-1 mouse female, plasma | intravenous, 5 mg/kg |  | elimination half-life | 432 min |
| C=C(NC(=O)c1csc(-c2nc3c(cc2O)-c2nc(cs2)C(=O)NC(C(C)O)C(=O)NC(=C(C)OC)c2nc(cs2)C(=O)NC2c4nc(cs4)C(=O)NC(COC(=O)c4c5c6c(cccc6n4O)COC(=O)C(OC4CC(C)(O)C(N(C)C)C(C)O4)C2OC5)c2nc-3cs2)n1)C(N)=O (centres unmarked) |  | ICR mice, Streptococcus pneumoniae ATCC 49169 infected, immunocompromised, blood | intravenous, 16 mg/kg/day once daily |  | AUC(0-inf) | 1890 ng·h/mL |
| C=CC(=O)Nc1cc(Nc2nccc(-c3c[nH]c4ccccc34)n2)c(OC)cc1N(C)CCN(C)C | storage stability | human dried blood spot | 30 d, on ice, MQC level |  | recovery | 58.1% |
| CC(=O)N([O-])CCCCCNC(=O)CCC(=O)N([O-])CCCCCNC(=O)CCC(=O)N([O-])CCCCCN.[89Zr+4] |  | mouse, brain | 1 h |  | tracer uptake | 0.04 %ID/g |
| C/C(N)=N/C(=N\S(=O)(=O)c1ccc(C(F)(F)F)cc1)N1C[C@H](c2ccccc2)C(c2ccc(Cl)cc2)=N1 |  | C57BL/6 mouse, brain | intravenous, 10 mg/kg |  | AUC(0-inf) | 537 ng·h/mL |
| CC[C@H](C)[C@@H](C(=O)N[C@@H](CC(C)C)C(=O)N[C@@H](CO)C(=O)N[C@@H](CO)C(=O)N[C@H](C(=O)N[C@@H](CCC(=O)O)C(=O)N[C@H](C(=O)NCC(=O)N[C@@H](CO)C(=O)N[C@@H](CC(N)=O)C(=O)N[C@H](C(=O)N1C[C@H](O)C[C@H]1C(N)=O)[C@@H](C)O)C(C)C)[C@@H](C)O)N(C)C(=O)[C@H](C)NC(=O)CN(C)C(=O)[C@H](Cc1ccccc1)NC(=O)[C@H](CO)NC(=O)[C@H](CO)NC(=O)[C@H](CCCNC(=N)N)NC(=O)[C@H](CCC(N)=O)NC(=O)[C@H](CC(C)C)NC(=O)[C@H](Cc1ccccc1)NC(=O)[C@H](Cc1c[nH]cn1)NC(=O)[C@H](C)NC(=O)[C@H](CC(C)C)NC(=O)[C@H](CCCNC(=N)N)NC(=O)[C@H](CCC(=O)O)NC(=O)[C@@H](NC(=O)[C@H](C)NC(=O)[C@@H]1CSSC[C@H](NC(=O)[C@H](CCCNC(=N)N)NC(=O)CC[C@H](NC(=O)CCCCCCCCCCCCCCCCCCC(=O)O)C(=O)O)C(=O)NCC(=O)N[C@@H]([C@@H](C)O)C(=O)N[C@@H](C)C(=O)N[C@@H]([C@@H](C)O)C(=O)N1)[C@@H](C)O | RP-HPLC | water | 1.0 mg/mL, 7 days, pH 6.0, 40 °C |  | main peak area remaining | 93% |
| O=c1c2ccccc2[se]n1CCCCCCn1[se]c2ccccc2c1=O | shake-flask, RP-HPLC | 10% PEG4000 solution | 24 h, 25 °C |  | solubility | 8 ± 1 µg/mL |
| O=C([O-])CN1CCN(CC(=O)[O-])CCN(Cc2cccc(C(=O)[O-])n2)CC1.[44Sc+3] |  | mouse, brain | intravenous, 1 h |  | tracer uptake | 0.14 %ID/g |
| COc1ccc2c(c1)CCn1c[n+]3c(c1-2)-c1ccc(OC)cc1CC3 |  | female NSG mice, blood | 6 mg/kg, day 14, 5 days per week |  | red cell distribution width | 17.6 ± 4.1% |
| CCCCN1C(=O)c2cccc3c(NCCCCN4CCOCC4)ccc(c23)C1=O |  | ethylene glycol |  |  | fluorescence quantum yield | 0.3 |
